# Assay results of several laboratories.
# Each numbered part is a random draw from the data of one study; scales do not carry over between parts. Substitutions count along the parent as printed.

# Set 1
# Target: Interferon regulatory factor 5, full length, phosphomimetic (IRF5, Homo sapiens, UniProt Q13568-2, residues 1-514, K96S/S451D/S453D/S456D/S462D)
# Method: protein-binding microarray
# Molecule type: double-stranded DNA, one strand shown
# Sample: in vitro
# Concentration: 250 nM
# Notes: 60-bp whole probe
# With: salmon DNA 0.4 mg/ml
# Reference: random background probes
# Reading: higher = stronger binding
# Shared flanks, not repeated: GCCTAGCAC … GTCTTGATTCGCTTGACGCTGCTG
Strand,log fluorescence [z-score]
GACGGTATCCTTATCCTGAGGTGCTAG,0.00984
TTAGGTTTCGGTCCCGGTTAGTGCTAG,9.93
ACCCATCTCAAGTAGCCTAGCGTGCTA,-0.363
TTAGGTTTCGTTCTCCTTTAGTGCTAG,7.46
GACTGTTTCCTTCTCCTGACGTGCTAG,0.966
TCACCTGTCTACATGGGACTGTGCTAG,-0.135
TTAGATCTCAGTATCGATCAGTGCTAG,5.67
TTTGATCTCAGACTGGATTAGTGCTAG,0.0871
TTAGGTAGCGGACTGGGTTAGTGCTAG,-0.524
TTAGGACTGATTATCCTTTAGTGCTAG,-0.0424
GACGGAATGCTTATCCTGACGTGCTAG,-0.0618
TTCGGTATCGGTCTCGGTTAGTGCTAG,7.92
GACGGATTGGACTATCGGGACGTGCTA,0.938
AGGGCGGCTGAGTCAGCACAGTGCTAG,-0.745
TTAGGGTTCGACTATCGGTTAGTGCTA,5.91
TTAGGTATCCTTCTCCTGTAGTGCTAG,0.363
TTTGGTTTGTACACCGCCTTGTGCTAG,0.136
GACGAACTGGGGATTCGAGACGTGCTA,-0.623
GACGGTATCGGGCCTGGGGACGTGCTA,0.883
TCACTTTTATCCCTGACACTGTGCTAG,0.73

# Set 2
# Target: Histone acetyltransferase KAT6A, winged helix 2, GST fusion (KAT6A, Homo sapiens, UniProt Q92794, residues 85-181)
# Method: protein binding microarray
# Molecule type: double-stranded DNA, one strand shown
# Sample: in vitro
# Concentration: not given
# Notes: 8-mer, flanks averaged, mean of 2 arrays, mostly near background
# Reference: not given
# Reading: higher = stronger binding
# Residues (chain): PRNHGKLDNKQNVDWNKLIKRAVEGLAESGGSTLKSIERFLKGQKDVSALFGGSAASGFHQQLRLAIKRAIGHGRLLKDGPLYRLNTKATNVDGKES
Strand,E-score
AATATTGG,-0.208
GATGGGGA,-0.0657
CACTTAGG,-0.0712
CAGTTTGA,0.0916
GAAGACTA,-0.11
GATGCCCA,0.207
ACGGGAAA,0.112
AATCCTCA,-0.0695
CTAAGAAA,0.166
ATCAAATG,-0.0248
AGAAAAAT,0.19
GCAACGCA,0.103
CGAGGGAA,-0.0117
CATCTCCA,-0.015
CTACATAA,-0.208
AGACCTAC,0.0835
GCGTATAC,0.0797
CTTTCAAA,0.148
AAGAAGAA,0.0782
AGAGCCCC,0.0769
CACCCTCA,-0.0146
AGTGAGAG,-0.042
ATACGGGA,0.0556
TCTAAAAA,0.187
GAGCGCGC,0.182

# Set 3
# Target: RNA binding protein fox-1 homolog 2, RRM domain, GST-SBP tag (RBFOX2, Homo sapiens, UniProt O43251-10, residues 100-194)
# Method: RNA Bind-n-Seq
# Molecule type: RNA
# Sample: in vitro
# Concentration: 365 nM
# Notes: natural RNA segment, single round, ends assumed
# Reference: no-protein control
# Reading: higher = stronger binding
# Target sequence (chain): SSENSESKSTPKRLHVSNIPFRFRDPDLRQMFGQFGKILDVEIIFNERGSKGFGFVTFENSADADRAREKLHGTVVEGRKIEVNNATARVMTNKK
Strand,RBNS enrichment (R)
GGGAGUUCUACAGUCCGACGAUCCUUAGUGCUUUGAGGAUUUUAUUUUCUCCCUUACUACGCUUGCUUGACGUCACUCUCUCUCGACCUCCAAACAGCAGGACUCUUUCUCUGGGAAACCAUCCUUCCAAAACUGGAAUUCUCGGGUGCCAA,0.309
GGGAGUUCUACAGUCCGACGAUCGAGUCAUGAGGGUAGUGGGCUAAGUCGAGGGUCCAGCCUCUUCUGCCAGGAAGCCCUUCUUGCUUUUGAGAGAGGCUGUGACCACCCCCCAUCCUUCUCCCUACACUCCCUGGAAUUCUCGGGUGCCAA,0.282
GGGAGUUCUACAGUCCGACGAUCGCAACAUUUACAAGUGUGUCUGGAGUAAUCCUGUUUCCUCCCAGCUGCAAAGCUUCUCUCAAGUUCCUUAAUCCUUGAGAAUCUUAAGAGGCUUGCUGGCUGGUGAAAAAUGGAAUUCUCGGGUGCCAA,0.414
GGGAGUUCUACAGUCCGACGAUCUUUUUUUAAUGAAUCAAUAGCAGCGUCCAGUCCCCCAGGGCUGCUUCCUGCCUGCACCUGCGGUGACUGUGAGCAGGAUCCUGGGGCCGAGGCUGCAGCUCAGGGCAACGUGGAAUUCUCGGGUGCCAA,0.283
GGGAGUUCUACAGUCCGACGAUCAAAGUAAAGUUGAAAAGAUCUAAGACAUCUAGUUACCUAGACUGUACCCAGCAGGUAUCACUUGGUAAAAAUACAAGAGCAAAGCCACUUGAGACUGAAGGUUCUUUAAAUGGAAUUCUCGGGUGCCAA,0.248
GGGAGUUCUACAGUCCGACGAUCCCAGUAGGGUCUGGACCCCAGCUCUUGCCUGACCUGGAAGUUGGCUGCCCAGGAGUAGAAGCCUGUUAGCUGCCUCCAUGGGUUUUAUACAGCUCUUCUUGCUUAGUGCGUGGAAUUCUCGGGUGCCAA,0.415
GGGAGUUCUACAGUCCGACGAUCGUGAAAGGUGCUGAUGGCCCUCAUCUCCAGCUAACUGUGGAGAAGCCCCUGGGGGCUCCCUGAUUAAUGGAGGCUUAGCUUUCUGGAUGGCAUCUAGCCAGAGGCUGGAGUGGAAUUCUCGGGUGCCAA,0.442
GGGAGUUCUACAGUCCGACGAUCAAAGGGAACUCAAAACUCUUCCACAUUCUUCCCGAGGAAAUCGACGACGUCCAUCCGUCCCACAGAGUGGGACCGACCGCCCCUGCUGCUCCAGCCAGGGCCCCUGCGCUUGGAAUUCUCGGGUGCCAA,0.286
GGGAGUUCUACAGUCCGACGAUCAUACAGACAAAUACAUAAACCAAUGAAUAUAUUACAUAUUCUGUGUUCCAAUAAAACUUUAUUUAUGGACACUAAAAUUUGAAUUUCAUAAAAUUUUCCCAUGUCAAGAAUGGAAUUCUCGGGUGCCAA,0.754
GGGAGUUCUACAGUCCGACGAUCAAGGAGGGUUGACUCAGAACCCAGAGACAAUACAAAACCCCUCACUUCCUCUGAGAGGGCCAAAUGCUGUGAGUCUGAAGUAUGUGCCUGGUGUGAAAUGAUCUAUGGCCUGGAAUUCUCGGGUGCCAA,0.545
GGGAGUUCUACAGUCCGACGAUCGCGAGCAAUUGCUAGUUGUCUUGAGGAGCAUGAGGAAUUCAGGAGCAGAAGGUCAGGAUAGCAUGAGAUAGUCUCAAUGUGGCCAACCAAAAGGACAAAACUGACAGGAAUGGAAUUCUCGGGUGCCAA,15.4
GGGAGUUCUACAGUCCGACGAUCCCCCUUUGGGGAGGGAGAGACAGACGGGCGGUUUGACUUGGACACAAAGAAAGCCUUGGUUUCUAAGAGUUGCCUCCAGCCUGCUUUCUGCUUCCUCAGCUCUAUGUCUCUGGAAUUCUCGGGUGCCAA,0.426

# Set 4
# Target: CCNB3, cyclin fold, Cln2 fusion (human)
# Method: yeast growth competition, sequencing
# Sample: yeast
# Notes: weak parent motif
# Reference: not given
# Reading: higher = stronger binding
# Starting sequence: RB1 docking peptide (human); PKPLKKLRFDIEG; partner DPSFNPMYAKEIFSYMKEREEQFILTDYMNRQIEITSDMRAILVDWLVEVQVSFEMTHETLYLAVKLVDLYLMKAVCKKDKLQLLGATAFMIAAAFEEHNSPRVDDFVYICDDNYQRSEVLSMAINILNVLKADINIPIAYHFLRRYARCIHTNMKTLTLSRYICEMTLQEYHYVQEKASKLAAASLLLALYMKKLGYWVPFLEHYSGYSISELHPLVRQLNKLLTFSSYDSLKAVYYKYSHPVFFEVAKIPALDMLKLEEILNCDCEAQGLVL
Change,normalised enrichment score
PKGLKKLRFDIEG [P3G],0.426
PKPLKKLRFDYEG [I11Y],-0.15
PKHLKKLRFDIEG [P3H],-0.614
PKFLKKLRFDIEG [P3F],-0.306
PKPNKKLRFDIEG [L4N],0.284
PKPCKKLRFDIEG [L4C],0.112
PKPLKKLRFYIEG [D10Y],0.265
PKPLKKLHFDIEG [R8H],0.686
PKPLKKLRIDIEG [F9I],-0.184
PKPWKKLRFDIEG [L4W],-0.0434
PKPLKKLRFRIEG [D10R],0.774
PKPLKKLRFIIEG [D10I],-0.985
PKNLKKLRFDIEG [P3N],-0.399
PKPLKKLRFEIEG [D10E],-0.305
PKPLKKLRFDIER [G13R],0.469
PKPLKKQRFDIEG [L7Q],-0.266
PKPLKKLRFGIEG [D10G],0.97
PKPLKKLRFDMEG [I11M],-0.222
PKPLKKLRFDHEG [I11H],0.324
PKPIKKLRFDIEG [L4I],0.411
PKPLKKLRFDAEG [I11A],0.426
PKPLKKLRFDIEM [G13M],0.355
TKPLKKLRFDIEG [P1T],0.146
PKPQKKLRFDIEG [L4Q],0.097
PKPLKKLFFDIEG [R8F],0.0457
